Published values from different studies.
Numbers after ± are the reported error.
ACHE: Acetylcholinesterase (ACHE, Homo sapiens, UniProt P22303)
PSMB6: Proteasome subunit beta type-6 (PSMB6, Homo sapiens, UniProt P28072)
PSMB5: Proteasome Macropain subunit MB1 (PSMB5, Homo sapiens, UniProt P28074)

Amino acid sequences for entries named in this document (tags omitted). A change or cut given only in a name is not applied to a line headed by its entry. Residues count along the entry.
UniProt P22303, whole entry, looked up: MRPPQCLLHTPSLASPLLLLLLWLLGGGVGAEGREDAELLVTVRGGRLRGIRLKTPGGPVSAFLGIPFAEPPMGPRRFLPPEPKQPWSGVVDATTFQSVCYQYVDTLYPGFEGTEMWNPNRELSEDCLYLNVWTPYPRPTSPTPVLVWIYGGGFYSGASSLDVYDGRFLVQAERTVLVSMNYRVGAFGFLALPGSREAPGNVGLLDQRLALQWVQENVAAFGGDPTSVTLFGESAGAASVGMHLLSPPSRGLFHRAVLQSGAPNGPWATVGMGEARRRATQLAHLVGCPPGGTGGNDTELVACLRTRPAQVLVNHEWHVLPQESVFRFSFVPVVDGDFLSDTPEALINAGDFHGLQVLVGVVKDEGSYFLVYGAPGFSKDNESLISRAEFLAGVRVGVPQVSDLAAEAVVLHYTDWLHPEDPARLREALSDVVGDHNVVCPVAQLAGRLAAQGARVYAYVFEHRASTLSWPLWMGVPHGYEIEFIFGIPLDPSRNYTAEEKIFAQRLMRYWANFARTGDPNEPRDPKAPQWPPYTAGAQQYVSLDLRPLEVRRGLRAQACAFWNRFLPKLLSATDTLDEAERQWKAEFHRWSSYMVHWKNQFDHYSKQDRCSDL
UniProt P28072, whole entry, looked up: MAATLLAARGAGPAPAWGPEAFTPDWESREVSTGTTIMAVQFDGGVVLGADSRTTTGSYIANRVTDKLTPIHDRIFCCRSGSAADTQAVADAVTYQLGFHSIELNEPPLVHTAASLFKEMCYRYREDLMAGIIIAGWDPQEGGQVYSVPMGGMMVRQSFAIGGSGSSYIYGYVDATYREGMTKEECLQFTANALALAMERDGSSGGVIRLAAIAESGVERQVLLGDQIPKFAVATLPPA
UniProt P29320, 29-207 limits assumed: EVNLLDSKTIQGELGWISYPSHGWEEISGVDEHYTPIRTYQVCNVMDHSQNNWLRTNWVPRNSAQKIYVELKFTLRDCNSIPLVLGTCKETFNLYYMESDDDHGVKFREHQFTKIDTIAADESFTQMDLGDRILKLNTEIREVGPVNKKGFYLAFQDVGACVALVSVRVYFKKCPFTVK
UniProt Q12908, whole entry: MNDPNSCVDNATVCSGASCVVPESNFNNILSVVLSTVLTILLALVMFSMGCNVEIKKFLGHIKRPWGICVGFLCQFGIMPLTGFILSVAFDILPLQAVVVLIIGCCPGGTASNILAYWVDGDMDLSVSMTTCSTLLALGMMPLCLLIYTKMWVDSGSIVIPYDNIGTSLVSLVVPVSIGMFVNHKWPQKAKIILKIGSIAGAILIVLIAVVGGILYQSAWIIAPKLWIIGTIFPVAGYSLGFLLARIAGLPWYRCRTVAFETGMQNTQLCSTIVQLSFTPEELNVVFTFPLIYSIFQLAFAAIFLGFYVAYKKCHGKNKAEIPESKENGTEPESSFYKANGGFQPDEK
UniProt Q00961, whole entry, looked up: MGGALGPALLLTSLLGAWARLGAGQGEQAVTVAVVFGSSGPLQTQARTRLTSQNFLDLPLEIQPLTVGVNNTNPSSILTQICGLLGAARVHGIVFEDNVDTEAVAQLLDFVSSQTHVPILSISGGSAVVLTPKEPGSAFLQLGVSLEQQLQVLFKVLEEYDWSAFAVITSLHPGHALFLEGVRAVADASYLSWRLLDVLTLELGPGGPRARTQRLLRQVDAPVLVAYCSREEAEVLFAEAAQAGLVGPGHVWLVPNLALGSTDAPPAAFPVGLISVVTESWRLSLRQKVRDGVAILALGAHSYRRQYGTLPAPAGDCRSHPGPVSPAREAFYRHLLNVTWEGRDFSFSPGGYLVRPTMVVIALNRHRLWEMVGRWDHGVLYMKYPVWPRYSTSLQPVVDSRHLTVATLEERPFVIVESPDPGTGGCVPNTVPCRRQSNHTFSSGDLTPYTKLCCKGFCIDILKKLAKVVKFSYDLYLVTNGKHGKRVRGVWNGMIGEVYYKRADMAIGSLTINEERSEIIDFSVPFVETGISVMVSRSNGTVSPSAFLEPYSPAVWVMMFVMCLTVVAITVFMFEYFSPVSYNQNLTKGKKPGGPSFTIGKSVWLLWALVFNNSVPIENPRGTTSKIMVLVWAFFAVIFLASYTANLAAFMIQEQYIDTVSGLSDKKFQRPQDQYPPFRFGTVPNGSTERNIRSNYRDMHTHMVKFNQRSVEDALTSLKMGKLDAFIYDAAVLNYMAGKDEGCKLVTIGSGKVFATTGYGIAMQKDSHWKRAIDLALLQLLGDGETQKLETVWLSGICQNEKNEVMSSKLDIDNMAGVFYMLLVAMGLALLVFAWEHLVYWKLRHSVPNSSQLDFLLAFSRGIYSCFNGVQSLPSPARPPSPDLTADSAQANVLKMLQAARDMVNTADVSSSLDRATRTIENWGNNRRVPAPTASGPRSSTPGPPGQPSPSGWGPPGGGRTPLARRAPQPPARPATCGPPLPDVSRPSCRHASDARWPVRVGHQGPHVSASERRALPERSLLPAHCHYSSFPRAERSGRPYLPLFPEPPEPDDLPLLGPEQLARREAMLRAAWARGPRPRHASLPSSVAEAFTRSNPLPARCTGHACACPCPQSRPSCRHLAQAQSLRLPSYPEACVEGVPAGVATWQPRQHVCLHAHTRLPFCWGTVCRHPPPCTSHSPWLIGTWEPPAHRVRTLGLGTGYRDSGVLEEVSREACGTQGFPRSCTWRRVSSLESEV
UniProt P10275, whole entry T878A: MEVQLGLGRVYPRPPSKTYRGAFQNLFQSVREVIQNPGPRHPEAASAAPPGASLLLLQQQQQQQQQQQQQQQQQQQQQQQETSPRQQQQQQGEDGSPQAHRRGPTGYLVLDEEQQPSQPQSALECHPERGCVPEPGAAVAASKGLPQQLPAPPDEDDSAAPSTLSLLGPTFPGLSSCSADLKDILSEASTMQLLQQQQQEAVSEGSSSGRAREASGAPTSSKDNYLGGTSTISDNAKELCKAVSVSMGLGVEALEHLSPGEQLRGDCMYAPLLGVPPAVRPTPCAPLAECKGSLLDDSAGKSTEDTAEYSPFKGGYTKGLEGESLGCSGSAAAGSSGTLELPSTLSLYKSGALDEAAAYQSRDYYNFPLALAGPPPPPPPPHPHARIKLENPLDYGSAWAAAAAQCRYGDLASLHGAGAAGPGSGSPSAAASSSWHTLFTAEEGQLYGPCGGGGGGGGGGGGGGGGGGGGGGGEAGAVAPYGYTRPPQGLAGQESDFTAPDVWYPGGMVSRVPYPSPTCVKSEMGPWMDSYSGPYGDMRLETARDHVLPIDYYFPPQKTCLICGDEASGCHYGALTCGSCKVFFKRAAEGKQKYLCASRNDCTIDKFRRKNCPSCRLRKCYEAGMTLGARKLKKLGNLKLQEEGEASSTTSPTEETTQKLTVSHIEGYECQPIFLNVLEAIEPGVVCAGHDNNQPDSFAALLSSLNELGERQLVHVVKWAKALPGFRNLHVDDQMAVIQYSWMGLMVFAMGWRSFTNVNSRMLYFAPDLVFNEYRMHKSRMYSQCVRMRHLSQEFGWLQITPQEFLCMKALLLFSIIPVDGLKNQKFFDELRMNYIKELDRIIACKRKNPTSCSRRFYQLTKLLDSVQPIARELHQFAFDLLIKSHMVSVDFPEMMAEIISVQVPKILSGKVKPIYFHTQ
UniProt P06276, whole entry, looked up: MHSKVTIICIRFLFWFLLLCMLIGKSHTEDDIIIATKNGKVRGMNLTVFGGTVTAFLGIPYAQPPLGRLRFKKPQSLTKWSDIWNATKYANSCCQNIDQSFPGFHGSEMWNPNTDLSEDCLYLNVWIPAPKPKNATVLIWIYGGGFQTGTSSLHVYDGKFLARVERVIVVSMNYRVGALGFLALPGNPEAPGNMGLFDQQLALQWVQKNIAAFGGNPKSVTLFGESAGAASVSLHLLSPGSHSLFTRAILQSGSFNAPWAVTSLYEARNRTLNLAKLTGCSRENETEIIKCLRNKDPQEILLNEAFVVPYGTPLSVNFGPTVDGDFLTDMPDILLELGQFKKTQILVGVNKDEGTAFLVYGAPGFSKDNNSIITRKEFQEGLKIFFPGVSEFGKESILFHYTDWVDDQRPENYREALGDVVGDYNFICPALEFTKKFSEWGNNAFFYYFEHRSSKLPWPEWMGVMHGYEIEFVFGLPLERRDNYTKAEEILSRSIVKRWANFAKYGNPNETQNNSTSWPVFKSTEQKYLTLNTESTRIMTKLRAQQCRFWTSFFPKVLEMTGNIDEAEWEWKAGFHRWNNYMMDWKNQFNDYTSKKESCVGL
UniProt O43175, whole entry R135A: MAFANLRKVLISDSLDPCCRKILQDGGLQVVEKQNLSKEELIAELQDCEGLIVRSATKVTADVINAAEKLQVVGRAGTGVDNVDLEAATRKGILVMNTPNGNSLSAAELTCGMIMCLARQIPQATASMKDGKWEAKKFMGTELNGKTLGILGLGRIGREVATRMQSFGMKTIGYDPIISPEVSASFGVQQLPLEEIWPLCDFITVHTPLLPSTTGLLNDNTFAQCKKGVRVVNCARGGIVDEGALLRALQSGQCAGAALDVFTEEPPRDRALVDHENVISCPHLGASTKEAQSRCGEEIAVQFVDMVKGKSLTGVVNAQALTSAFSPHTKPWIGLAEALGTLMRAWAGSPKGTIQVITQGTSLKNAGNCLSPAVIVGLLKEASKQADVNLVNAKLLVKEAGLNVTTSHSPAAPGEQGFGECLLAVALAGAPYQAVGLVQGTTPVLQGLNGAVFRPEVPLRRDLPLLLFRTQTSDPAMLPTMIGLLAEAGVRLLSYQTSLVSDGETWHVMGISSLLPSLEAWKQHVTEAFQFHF
UniProt Q05769, 18-604 limits assumed: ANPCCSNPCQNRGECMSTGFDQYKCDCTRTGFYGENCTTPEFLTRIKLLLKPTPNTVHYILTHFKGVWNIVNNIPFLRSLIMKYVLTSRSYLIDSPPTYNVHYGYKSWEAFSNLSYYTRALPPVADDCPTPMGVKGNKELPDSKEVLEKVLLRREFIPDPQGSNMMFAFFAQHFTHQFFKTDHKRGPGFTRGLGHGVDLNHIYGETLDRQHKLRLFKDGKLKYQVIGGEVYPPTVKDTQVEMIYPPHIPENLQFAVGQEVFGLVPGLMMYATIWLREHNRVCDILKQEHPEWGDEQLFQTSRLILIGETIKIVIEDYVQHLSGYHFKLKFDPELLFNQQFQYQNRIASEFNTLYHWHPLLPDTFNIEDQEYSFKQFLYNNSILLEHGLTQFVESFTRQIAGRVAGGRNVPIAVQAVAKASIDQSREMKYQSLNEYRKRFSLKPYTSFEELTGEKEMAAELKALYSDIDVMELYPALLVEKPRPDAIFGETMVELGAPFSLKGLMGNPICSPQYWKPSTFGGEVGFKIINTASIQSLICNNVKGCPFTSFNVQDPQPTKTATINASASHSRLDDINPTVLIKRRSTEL
UniProt P13945, whole entry: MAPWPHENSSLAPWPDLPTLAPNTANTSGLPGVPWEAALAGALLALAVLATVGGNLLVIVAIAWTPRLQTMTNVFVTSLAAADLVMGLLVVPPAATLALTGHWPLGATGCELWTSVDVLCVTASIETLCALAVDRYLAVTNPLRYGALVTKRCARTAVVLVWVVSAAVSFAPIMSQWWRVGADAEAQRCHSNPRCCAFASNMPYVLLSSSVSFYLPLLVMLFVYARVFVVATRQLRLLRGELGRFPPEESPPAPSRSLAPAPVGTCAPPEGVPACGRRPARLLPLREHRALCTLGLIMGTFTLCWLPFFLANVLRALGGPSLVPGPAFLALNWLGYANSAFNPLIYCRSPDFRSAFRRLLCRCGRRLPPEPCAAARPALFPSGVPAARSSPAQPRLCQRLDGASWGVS
UniProt P18507, 40-475 limits assumed: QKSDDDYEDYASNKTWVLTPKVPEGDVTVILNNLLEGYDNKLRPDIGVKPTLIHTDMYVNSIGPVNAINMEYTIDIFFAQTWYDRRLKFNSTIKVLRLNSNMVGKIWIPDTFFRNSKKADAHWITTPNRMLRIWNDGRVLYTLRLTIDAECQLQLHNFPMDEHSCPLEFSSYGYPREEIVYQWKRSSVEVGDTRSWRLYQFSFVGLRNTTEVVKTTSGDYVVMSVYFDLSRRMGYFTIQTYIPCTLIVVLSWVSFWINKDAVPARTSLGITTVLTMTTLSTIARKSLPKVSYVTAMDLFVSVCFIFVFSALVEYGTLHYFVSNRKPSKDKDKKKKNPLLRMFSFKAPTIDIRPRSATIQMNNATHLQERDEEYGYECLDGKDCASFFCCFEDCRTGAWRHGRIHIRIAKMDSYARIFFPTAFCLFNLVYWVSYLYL
UniProt P17706, whole entry: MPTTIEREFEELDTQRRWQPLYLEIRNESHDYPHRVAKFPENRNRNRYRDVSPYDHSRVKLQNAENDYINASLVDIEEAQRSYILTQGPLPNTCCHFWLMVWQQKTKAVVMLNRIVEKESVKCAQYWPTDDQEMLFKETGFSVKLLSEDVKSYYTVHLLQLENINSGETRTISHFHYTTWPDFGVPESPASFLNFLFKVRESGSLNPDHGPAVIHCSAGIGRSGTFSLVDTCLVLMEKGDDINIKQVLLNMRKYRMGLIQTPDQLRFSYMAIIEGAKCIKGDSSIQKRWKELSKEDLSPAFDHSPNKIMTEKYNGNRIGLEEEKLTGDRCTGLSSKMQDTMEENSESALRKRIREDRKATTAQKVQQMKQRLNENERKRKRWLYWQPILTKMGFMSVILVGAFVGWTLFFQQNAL

COc1ccc2[nH]cc(CCNC(=O)[C@H](Cc3ccncc3)NC(=O)[C@H](Cc3ccc(Cl)cc3)NC(=O)[C@H](Cc3c[nH]c4ccc(O)cc34)NC(=O)CCCN)c2c1 — ΔH (Ephrin type-A receptor 3 (EPHA3, Homo sapiens, UniProt P29320); binding, isothermal titration calorimetry): -6.44 ± 1.26 kJ/mol
CC(CCC(=O)N(CCNC(=O)C(F)(F)F)CC(=O)O)[C@H]1CC[C@H]2[C@@H]3[C@H](O)C[C@@H]4C[C@H](O)CC[C@]4(C)[C@H]3C[C@H](O)[C@]12C (stereo partly drawn) — Km (Ileal sodium/bile acid cotransporter (SLC10A2, Homo sapiens, UniProt Q12908); substrate): 73.2 ± 7 µM
CCN(CC)c1ccc2c(O)c(C=Nc3ccc(CC(=O)NNc4c5c(nc6ccccc46)CCCC5)cc3)c(=O)oc2c1 — efficacy (ACHE; enzyme activity): -89.6 ± 0.63%
COc1ccc(OC[C@H]2c3cccn3CC(=O)N2Cc2cccc(F)c2)cc1 — charge transfer (Glutamate receptor ionotropic, NMDA 2C, with GluN1 (Rattus norvegicus, UniProt Q00961); ion current, whole-cell patch clamp; HEK293T cells, transfected; 10 µM, added: glutamate for 10 ms; relative to: baseline): 6.5 ± 2.5 fold
C[C@]12CCC(=O)C=C1CCC1C2CC[C@]2(C)C(n3cnc4ccccc43)=CCC12 (stereo partly drawn) — inhibition (Androgen receptor (AR, Homo sapiens, UniProt P10275, T878A); reporter gene, antagonist; LNCaP; 10 µM, 18 h, added: DHT 10 nM): 90 to 99%
Cc1ccc(-c2nsc(=O)o2)s1 — kobs/[I] (PSMB6; inactivation; human PA28-activated proteasome): 2.35 M⁻¹ s⁻¹
Cc1ccc(S(=O)(=O)Nc2ccccc2N2CCCCC2)s1 — efficacy (Cholinesterase (BCHE, Homo sapiens, UniProt P06276); enzyme activity): -52 ± 7.8%
O=c1oc(-c2cccc(C(F)(F)F)c2)ns1 — kobs/[I] (PSMB5; inactivation; human PA28-activated proteasome): 0.4 M⁻¹ s⁻¹
O=C(N/N=C/c1cc([N+](=O)[O-])ccc1O)c1ccc(O)cc1O — maximum inhibition (D-3-phosphoglycerate dehydrogenase (PHGDH, Homo sapiens, UniProt O43175, R135A); enzyme activity, inhibitor; R134A mutant): 49%
CC#C/C(=N\OC[C@H]1COCCN1)c1ccc2ncnc(Nc3ccc(OCc4cccc(F)c4)c(Cl)c3)c2c1 — inhibition (Citron Rho-interacting kinase (CIT, Homo sapiens, UniProt O14578); kinase activity; 10 µM): -3.7%
CCN1CCN(Cc2ccc(NC(=O)c3ccc(C)c(/C=C/c4cnc5[nH]ccc5c4OC)c3)cc2C(F)(F)F)CC1 — log2 fold change (Protein kinase C gamma type (PRKCG, Homo sapiens, UniProt P05129); kinase activity, inhibitor, cell-based kinome screen; 5 µM; relative to: vehicle): 0.462
COc1ccc2c(c1)c(CC(=O)O[C@@H](C(=O)O[C@H]1C[C@@]3(O)[C@@H](OC(=O)c4ccccc4)[C@@H]4[C@]5(OC(C)=O)CO[C@@H]5C[C@H](O)[C@@]4(C)C(=O)[C@H](OC(C)=O)C(=C1C)C3(C)C)[C@@H](NC(=O)c1ccccc1)c1ccccc1)c(C)n2C(=O)c1ccc(Cl)cc1 — inhibition (Prostaglandin G/H synthase 2 (Ptgs2, Mus musculus, UniProt Q05769); enzyme activity, inhibitor; purified enzyme; concentration not given): no inhibition
CCCN1CCN(c2ccc3c(c2)C2CC3CCN2C(=O)OCc2ccccc2)CC1 (stereo not drawn) — Ki (Beta-3 adrenergic receptor (ADRB3, Homo sapiens, UniProt P13945); binding, radioligand binding): > 10 µM
O=C(NOCC1CC1)c1cc(Br)c(F)c(F)c1Nc1ccc(I)cc1Cl — IC50 (ACHE; enzyme activity, inhibitor): inactive
CCN(CC)C(=O)Oc1ccc(C(=O)Nc2cccc3cc[nH]c23)cc1 — current response (GABA-A receptor; alpha-1/beta-2/gamma-2 (Homo sapiens, UniProt P14867+P18507+P47870); modulator, two-electrode voltage clamp; Xenopus oocytes; 20 µM, added: 20 µM GABA; relative to: agonist alone): 107 ± 2.8%
COC(=O)c1c(O)cc(O)c(Cl)c1CCc1cc(N)ccc1Cc1ccccc1 — selectivity ratio (Endoplasmin (HSP90B1, Canis lupus familiaris, UniProt P41148); fluorescence polarization; added: FITC-geldanamycin tracer; relative to: Grp94 over Hsp90α): 4 fold
COc1cc(CC(=O)NCC(NC(=O)C(CCCNC(=O)c2cccc(I)c2)NC(=O)C(Cc2ccc(C(F)(F)P(=O)(O)O)cc2)NC(=O)c2ccc(C)c(Br)c2)C(N)=O)ccc1O (stereo not drawn) — selectivity ratio (Tyrosine-protein phosphatase non-receptor type 2 (PTPN2, Homo sapiens, UniProt P17706); pNPP hydrolysis; relative to: Ki PTP-MEG2 over PTPN2): > 18 fold
Cc1cccc(-c2nsc(=O)o2)c1 — kobs/[I] (PSMB6; inactivation; human PA28-activated proteasome): 0.78 M⁻¹ s⁻¹
CCCCCCCCCCC/C=C/c1ccc2cc(CP(=O)(O)O)ccc2c1 — remaining activity (Autotaxin (ENPP2, Homo sapiens, UniProt Q13822); inhibitor; 10 µM, 2 h, 2 nM autotaxin, added: 1 µM FS-3 substrate; relative to: untreated): 17.3%
O=c1oc(-c2ccccn2)ns1 — kobs/[I] (PSMB5; inactivation; human PA28-activated proteasome): 0.2 M⁻¹ s⁻¹
CC1(C)S[C@@H]2CS[C@@H](CS)N2[C@H]1C(=O)O — k-2 (E*I breakdown) (Metallo-beta-lactamase VIM-2 (VIM-2, Escherichia coli, UniProt Q5U7L7); slow-binding inhibitor; Pseudomonas aeruginosa; added: nitrocefin): 6e-08 ± 0.0004 s⁻¹
